Results gathered from unrelated publications.
Parts stem from different laboratories: compare values within a part only. Substitutions count along the parent as printed.

Sample 1 — target: CCNF, cyclin fold, Cln2 fusion (human); method: yeast growth competition, sequencing; medium: yeast; setting: strong parent motif; reference: not given; reading: higher = stronger binding
Starting sequence: RB1 docking peptide (human); PKPLKKLRFDIEG
Change | normalised enrichment score
K6T | 1.55
G13W | 1.51
K6Q | 0.763
L7P | 0.365
G13L | 0.584
K2L | 1.85
E12A | 0.891
K6S | 1.23
F9R | 0.449
G13F | 1.39
L7Q | -0.00433
K2P | 0.459
R8A | 1.16
E12M | 1.37
P3F | 1.68
P3D | 0.848
K5S | 2.2
K2H | 0.52
R8G | 0.563
P1I | 0.695
K6Y | -0.0291
K5C | 1.05
K6D | -0.26
K5T | 1.54
P1K | 1.81

Sample 2 — method: protein-binding microarray; molecule type: double-stranded DNA, one strand shown; medium: in vitro; tested at: 2540 nM top; setting: 60-bp whole probe; with: salmon DNA 0.4 mg/ml; reference: random background probes; reading: higher = stronger binding; all sequences stand within: GCCTAGCAC … GTCTTGATTCGCTTGACGCTGCTG
Target: Interferon regulatory factor 3, full length, phosphomimetic (IRF3, Homo sapiens, UniProt Q14653, residues 1-427, S386D/S396D/S398D/S402D/T404D/S405D)
Residues (chain): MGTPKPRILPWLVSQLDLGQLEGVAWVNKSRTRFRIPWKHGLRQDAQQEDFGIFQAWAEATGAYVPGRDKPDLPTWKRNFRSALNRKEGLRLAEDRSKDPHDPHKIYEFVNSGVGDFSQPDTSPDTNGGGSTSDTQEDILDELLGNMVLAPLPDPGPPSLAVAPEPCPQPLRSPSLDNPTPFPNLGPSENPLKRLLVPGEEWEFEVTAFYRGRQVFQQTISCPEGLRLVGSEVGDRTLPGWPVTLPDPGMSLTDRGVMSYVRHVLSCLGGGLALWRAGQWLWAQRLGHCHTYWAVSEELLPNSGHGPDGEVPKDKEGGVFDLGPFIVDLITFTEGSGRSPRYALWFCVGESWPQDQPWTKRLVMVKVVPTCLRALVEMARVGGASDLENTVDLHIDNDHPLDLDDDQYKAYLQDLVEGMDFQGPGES
Oligonucleotide | fitted relative affinity [z-score]
TTTCATTTATTTACTCTCTACGTGCTA | 3.4
TGTACTCTCTACATGGGCTTGTGCTAG | -0.0356
CAAACAGAGACCCGGCAAGTGTGCTAG | 0.824
GACGGTCTGGGGTATCGGGACGTGCTA | -0.499
TTAGGACTGTACTATCGGTTAGTGCTA | 0.00424
AAGCCAGCCAAGGCCACTGTGTGCTAG | -1.5
TTAGGTATCCTACAGCTTTAGTGCTAG | 0.624
TTAGGTATGGGTCTCGGTTAGTGCTAG | -0.394
TTATATTTCGGGTTTCGATTAGTGCTA | 2.75
GACGGTTGCGACACTGGGGACGTGCTA | 0.209
CTCGTGGTCCTGCCCTGCCTGTGCTAG | -0.871
GACGGACTGCATTTCCTGACGTGCTAG | -0.0377
AGTGTGGTCTGTTTCTGATAGTGCTAG | 1.6
GACGGTTTCTGGTATCGGGACGTGCTA | 2.77
TTAGGTATCGACTTTCGGTTCGTGCTA | 2.8
GACGATATCGACACTGGGGACGTGCTA | -0.0707
TTAGATCTCAGATTCGATTAGTGCTAG | 1.41
TTAGGACTGGCTATCGGTTAGTGCTAG | -0.55
TATTTTTACATTATTACCTCGTGCTAG | 1.05
ATAGGTATCGACACTGGGTTAGTGCTA | 0.301
TTAGAACAGAGTCTCGATTAGTGCTAG | -0.22
CTAGTTCTGCTTTGCCTTCAGTGCTAG | 0.9
TTAGATATCGAGTATCGATTAGTGCTA | 0.217
TCAGGAGTCATTCTCAAACTGTGCTAG | 0.92
TTAGGTATAGGTATCGGTTAGTGCTAG | 1.32

Sample 3 — method: aptamer microarray, sandwich; molecule type: DNA with 2'F-ANA; medium: in vitro; tested at: 200 nM; with: Cy3 exosite-II aptamer, 400 nM; reading: higher = stronger binding; oligonucleotide: GGTTGGTGTGGTTGG
Target: Prothrombin, mature alpha-thrombin (F2, Homo sapiens, UniProt P00734)
Setting: whole 15-mer aptamer, many near background
Modification | mean fluorescence intensity [a.u.]
2'F-ANA at 1 3 5 6 8 10 11 12 13 15 | 49.1
2'F-ANA at 2 6 7 12 13 14 15 | 166
2'F-ANA at 1 5 6 7 8 9 10 13 14 15 | 66.7
2'F-ANA at 3 4 5 6 8 11 13 14 15 | 49.7
2'F-ANA at 2 7 8 11 13 14 | 168
2'F-ANA at 3 4 5 6 9 12 15 | 207
2'F-ANA at 3 5 8 11 12 14 | 130
2'F-ANA at 2 3 6 7 10 14 | 277
2'F-ANA at 3 5 7 9 10 11 12 15 | 64.2
2'F-ANA at 1 3 4 5 6 9 14 15 | 45.1
2'F-ANA at 2 3 4 6 7 8 9 11 13 14 | 190
2'F-ANA at 1 2 3 4 6 7 8 11 12 15 | 294
2'F-ANA at 1 2 3 4 9 10 11 12 15 | 100
2'F-ANA at 2 3 4 5 6 7 8 10 12 15 | 79.3
2'F-ANA at 2 3 7 8 10 11 12 15 | 384
2'F-ANA at 2 8 9 10 13 | 111

Sample 4 — method: RNA Bind-n-Seq; molecule type: RNA; medium: in vitro; tested at: 365 nM; reference: no-protein control; reading: higher = stronger binding
Target: RNA binding protein fox-1 homolog 2, RRM domain, GST-SBP tag (RBFOX2, Homo sapiens, UniProt O43251-10, residues 100-194)
Setting: natural RNA segment, single round, ends assumed
Target sequence (chain): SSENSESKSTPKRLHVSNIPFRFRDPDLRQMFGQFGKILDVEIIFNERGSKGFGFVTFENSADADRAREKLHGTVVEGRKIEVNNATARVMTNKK
Oligonucleotide | RBNS enrichment (R)
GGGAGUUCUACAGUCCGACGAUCAUUUGUCAUUUCAGUUUUUUACUGAAAUUUGAGCUAAACAUUUUUACAUGUAAAUACUUGUAUUUACCAAAGAUUUAAAUCAGUUGAUUAAUUAAUUAACUCAAAUACUGUGGAAUUCUCGGGUGCCAA | 0.388
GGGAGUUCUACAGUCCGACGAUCACCUUUGUGGGGGGCUUUUGAGGACCCAGCUGCGUCAGGAGUUUUGCUUCAAGAUGUCAGAAAGUCAAGUUCAGCUAAGAGACACCCAGGUCCCCAGCUUGCCCUGAGCAUGGAAUUCUCGGGUGCCAA | 0.324
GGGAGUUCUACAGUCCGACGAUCUCUGUUACAUACUUUUUUUAACCUGUUUUGUUUUAUCAUAUAUGCAUUAAAAGUAUUAUCUUUAUCAACAUUUGCUGCUACUGUGUUAACAUUUUUGUUUUGCUUGCCAUUGGAAUUCUCGGGUGCCAA | 1.94
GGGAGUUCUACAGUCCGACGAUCUUAUUUCAAGAAUAUGGCCAUCACUGUUCUCUUAUACAUGUUCUUUUCCAUAUUUUAAUUAUCAAAAUGACCAUAUCAGACUUAUUCCUGGGUAAAUUGCAUUUCAAACUUGGAAUUCUCGGGUGCCAA | 0.666
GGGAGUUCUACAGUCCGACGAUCUGCACUCAAACUUAACAUUUAUCUAUUAAAAUUGCCAUUUCAUUAAGCAAUUUUCACGCACAGUAGAUUCAACUUGUUUUUUGUGCUGUUUUUUGAUUUUUGCUGACUUAUGGAAUUCUCGGGUGCCAA | 0.429
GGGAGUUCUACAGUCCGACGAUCAUACACAGUGUGUAGGAACAGCUGCCUGGGAAGCUGUGUGUCUGUCCCUCUGUUCACUACCCUCUUGCUCUGAGGCACGCUGGUUCUGGAGUAUAUUUCCACCUAUGAUGUGGAAUUCUCGGGUGCCAA | 0.796
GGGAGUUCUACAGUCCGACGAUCCCAUGCCUGUGGGGAAACACUGCUUCAGAAAGCCUUCACCUACCCUCUGCCUCUAUUUCCCAGGACACCUAGAGGAUUCCCUUCUGAACCACCCCAGUGGGGUCUACCUGUGGAAUUCUCGGGUGCCAA | 1.94
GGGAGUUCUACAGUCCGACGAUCACGCCAAAACGUAGGCUUAGUUUGUGUGUUGUCUCUGAGUUUGUCGCUCAUGCGUACAACAGGGUAUGGACUAUCUGUAUGGUGCCCCAUUUUUGGCGGCCCGUAAGUAGUGGAAUUCUCGGGUGCCAA | 0.405
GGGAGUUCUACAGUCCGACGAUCGUUGCUUGUGUAAUAAAGCAUGUCCUUCGUAUGUCACAGUUUGGGGCAACGGAAGUCUUUUAGUGAUGGCUAAUGGGUCUGGGCAGCAUCCCUUCAUGAAUUUUUUUUUAUGGAAUUCUCGGGUGCCAA | 2.46
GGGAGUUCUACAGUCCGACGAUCAAAAGUUUCUACUCAGAACUGGGGAAGGAGUGGAACUUAUGACUUGGGCCUCUAGGCUGUCUCUGUCCCCUCAGCUCCCCGACAUGCAUUUACUCUCUGCCGUGGGUCUGUGGAAUUCUCGGGUGCCAA | 0.372
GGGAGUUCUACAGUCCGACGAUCCUUUUCCCUGAGAUGGGGGCUCAGAGGGGGAAGGCCUGUGGCCUGCAUGCUUCCCGAUGGCCCACGGCAGGAGGUGUGUGGAAGUGUAAGGCCUAAGAUGCUCACAGAGGUGGAAUUCUCGGGUGCCAA | 27.6
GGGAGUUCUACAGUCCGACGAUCCUGUGCUCUGGGGGUCCCUUGCUUAGCCUGUGCUGGACCAGCUGGCCUGGGGUCCCUCUGAAGAGACCUUGGCUGCUCACUGUCCACAUGUGAACUUUUUCUAGGUGGCAUGGAAUUCUCGGGUGCCAA | 0.392

A few entries again (sample 1):
Change | normalised enrichment score
G13F | 1.39
R8A | 1.16
K2H | 0.52
K6Y | -0.0291
G13L | 0.584
K5T | 1.54
R8G | 0.563
E12M | 1.37
K6D | -0.26
K5S | 2.2
K6Q | 0.763
K2L | 1.85
